Measured values pooled from the literature.
Parts stem from different laboratories: compare values within a part only.

Study 1 — technique: universal PBM; form: double-stranded DNA, one strand shown; medium: in vitro; tested at: not given; direction: higher = stronger binding; endpoint: E-score
Target: Sal-like protein 4, full length isoform B (SALL4, Homo sapiens, UniProt Q9UJQ4-2, residues 1-616)
Notes: 8-mer, flanks averaged, mean of replicates
Sequence = GCCCTAGC; value = -0.216
Sequence = CAACCCTC; value = -0.0816
Sequence = CATACGCC; value = 0.0485
Sequence = CAAAAGTA; value = 0.295
Sequence = GCGGTTTA; value = -0.0871
Sequence = CACCATAG; value = -0.095
Sequence = CACTGACG; value = -0.226
Sequence = CGAAACGC; value = -0.236

Study 2 — technique: protein-binding microarray; form: double-stranded DNA, one strand shown; medium: in vitro; tested at: 2200 nM top; notes: 60-bp whole probe; added: salmon DNA 0.4 mg/ml; reference: random background probes; direction: higher = stronger binding; endpoint: fitted relative affinity; constant ends, left off below: GCCTAGCAC … GTCTTGATTCGCTTGACGCTGCTG
Target: Interferon regulatory factor 7, full length, phosphomimetic (IRF7, Homo sapiens, UniProt Q92985, residues 1-503, S471D/S472D/S475D/S476D/S477D/S483D/S484D/S487D)
Target sequence (chain): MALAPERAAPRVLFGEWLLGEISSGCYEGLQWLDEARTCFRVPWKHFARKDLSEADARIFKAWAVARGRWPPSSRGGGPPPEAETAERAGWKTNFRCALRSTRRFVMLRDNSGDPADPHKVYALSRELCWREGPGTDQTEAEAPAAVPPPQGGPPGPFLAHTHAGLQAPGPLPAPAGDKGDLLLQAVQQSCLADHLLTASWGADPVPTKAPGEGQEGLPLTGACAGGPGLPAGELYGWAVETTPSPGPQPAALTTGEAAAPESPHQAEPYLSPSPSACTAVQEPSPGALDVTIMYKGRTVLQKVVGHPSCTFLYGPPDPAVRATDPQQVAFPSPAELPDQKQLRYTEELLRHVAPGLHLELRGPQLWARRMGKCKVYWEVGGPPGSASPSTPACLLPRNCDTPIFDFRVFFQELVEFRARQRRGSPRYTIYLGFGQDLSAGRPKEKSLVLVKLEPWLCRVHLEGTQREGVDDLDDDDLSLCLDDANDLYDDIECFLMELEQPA
Sequence = AAGAAGCTTCCTCTCTGCCAGTGCTAG; value = 0.559 z-score
Sequence = GACGTTATCGACTTTCGGGACGTGCTA; value = 3.36 z-score
Sequence = GACGCTCTCGGTTTCGGGACGTGCTAG; value = 4.17 z-score
Sequence = TTAGGTATCGGAGTGGGTTAGTGCTAG; value = -0.225 z-score
Sequence = GACGATTTCAGACCGGAGACGTGCTAG; value = 0.0561 z-score
Sequence = TCAGCTTTCCTGATGGTACTGTGCTAG; value = 1.71 z-score
Sequence = TTAGGTGTCGACTATCGGTTAGTGCTA; value = 0.157 z-score
Sequence = GACGGTTTCGGGACTGGGGTCGTGCTA; value = 3.63 z-score

Study 3 — read-out: enzyme activity; action: inhibitor; tested at: 20 µM; notes: hit confirmation; endpoint: inhibition
Target: Replicase polyprotein 1ab, main protease (rep, Severe acute respiratory syndrome coronavirus 2, UniProt P0DTD1)
Compound = CC1=C(CCC(=O)O)c2cc3[nH]c(cc4nc(cc5[nH]c(cc1n2)c(C)c5C(C)O)C(C)=C4C(C)O)c(C)c3CCC(=O)O (stereo not drawn); value = 27.1%
Compound = Nc1nc(S)c2ncn([C@@H]3O[C@H](CO)[C@@H](O)[C@H]3O)c2n1; value = 79.6%
Compound = Nc1ncc2c(n1)CC(c1ccco1)CC2=O (stereo not drawn); value = 32.2%
Compound = Oc1cc2c(c(Cl)c1O)CCNCC2c1ccccc1 (stereo not drawn); value = 64.6%

Study 4 — technique: RNA Bind-n-Seq; form: RNA; medium: in vitro; tested at: 1 µM; notes: whole 134-nt RNA, ends assumed; added: 150 mM KCl; reference: input library; direction: higher = stronger binding; endpoint: log2 enrichment
Target: Ras GTPase-activating protein-binding protein 1, C-terminal RGG region (G3BP1, Homo sapiens, UniProt Q13283)
UniProt Q13283, sequence (whole entry, looked up): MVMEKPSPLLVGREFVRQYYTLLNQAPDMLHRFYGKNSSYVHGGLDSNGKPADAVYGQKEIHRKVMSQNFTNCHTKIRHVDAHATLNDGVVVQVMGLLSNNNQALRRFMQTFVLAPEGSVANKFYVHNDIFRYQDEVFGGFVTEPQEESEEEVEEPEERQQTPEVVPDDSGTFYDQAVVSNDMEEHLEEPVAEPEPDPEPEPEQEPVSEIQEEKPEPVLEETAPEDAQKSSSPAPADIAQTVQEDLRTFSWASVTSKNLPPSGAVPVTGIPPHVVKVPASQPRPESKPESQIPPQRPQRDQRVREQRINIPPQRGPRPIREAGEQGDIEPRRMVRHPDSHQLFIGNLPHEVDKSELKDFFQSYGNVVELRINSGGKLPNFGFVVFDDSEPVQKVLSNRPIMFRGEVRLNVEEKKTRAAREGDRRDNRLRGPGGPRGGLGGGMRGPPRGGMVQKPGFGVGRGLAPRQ
Constant ends, left off below: GGGAGUUCUACAGUCCGACGAUC … UGGAAUUCUCGGGUGUCAAGG
Sequence = UAACUUUAGAGGAGGAUCUGAUGGUUAUGGCAGUGGACGUGGAUUUGGGGAUGGCUAUAAUGGGUAUGGAGGAGGACCUGGAGGUGGCAA; value = -1.08
Sequence = UGGCCCUGGUGGCAUGCGGGGAGGAAGAGGUGGCCUCAUGGAUCGUGGUGGUCCCGGUGGAAUGGUCAGAGGUGGCCGUGGUGGAGACAG; value = 3.49
Sequence = CACAGACAACACGCACCCACACAGACACAGAGGCAAGGGGUUGGGAUGGGGACAGGGUGCACAGCAGGGCGGGGUAGGACCCCAGCCCCU; value = -0.108
Sequence = GCAGGAAGUAAAAACAAAUGGAAAUGCUUCGGAUAGUGGCAGGGGUGGGGGUUGCUAAGGGAAGGGUGGGAUGGGAGUGGGUAAAGAGUU; value = 2.52
Sequence = CCUCAAGUCCUGUGCUACACAUCGUAUGUACCGAAUCGGGGUGGGGUGGUGGAAAGUAUUAUGUUACGCCGUUCGGAUCUGCACUUCCAG; value = -0.194
Sequence = CCUGUGCUACACAUCGUAUGUACCGAAUCGGGGAAAAAGGGGAAAAAGGGGUUUUUGGGGAAAGUAUUAUGUUACGCCGUUCGGAUCUGC; value = 1
Sequence = AAACUUUAGAGGAGGAUCUGAUGGAUAUGGCAGUGGACGUGGAUUUGGGGAUGGCUAUAAUGGGUAUGGAGGAGGACCUGGAGGUGGCAA; value = -1.09
Sequence = CCUGUGCUACACAUCGUAUGUACCGAAUCAAACCCCCCCAAAUUUUUAAACCCCCCCAAAAAAGUAUUAUGUUACGCCGUUCGGAUCUGC; value = -1.03

Study 5 — cell line: HEK-293T; read-out: pseudovirus infection; technique: FDA-approved drug library screen; organism: VSV pseudotyped with SARS-CoV-2 spike; tested at: 10 µM; time: 16 h; reference: vehicle-treated; endpoint: GFP-positive cells
Compound = CC(c1cc2ccccc2s1)N(O)C(N)=O (stereo not drawn); value = 84.1%
Compound = CN(Cc1ccc(C(C)(C)C)cc1)Cc1cccc2ccccc12; value = 80.6%
Compound = CCCCOc1ccc(C(=O)CCN2CCCCC2)cc1; value = 74.4%
Compound = COc1ccc2[nH]c([S+]([O-])Cc3ncc(C)c(OC)c3C)nc2c1 (stereo not drawn); value = 83.7%

Study 6 — read-out: enzyme activity; action: inhibitor; tested at: 20 µM; endpoint: inhibition
Target: Replicase polyprotein 1ab, polymerase (rep, Severe acute respiratory syndrome coronavirus 2, UniProt P0DTD1)
SMILES = CC[C@H]1OC(=O)C[C@@H](O)[C@H](C)[C@@H](O[C@@H]2O[C@H](C)C[C@H](N(C)C)[C@H]2O)[C@@H](CC=O)C[C@@H](C)C(=O)/C=C/[C@]2(C)O[C@H]2[C@@H]1C; value = -2.69%
SMILES = C#Cc1cnc2nc(O)n(C(CC)CC)c2n1; value = -6.93%
SMILES = CCCNS(=O)(=O)Nc1ncnc(OCCOc2ncc(Br)cn2)c1-c1ccc(Br)cc1; value = 2.77%
SMILES = CCC1(c2c[nH]cn2)Cc2ccccc2C1; value = -10.5%
SMILES = COc1ccccc1N1CCN(CC(O)COc2cc(OC)c(OC)c(OC)c2)CC1 (stereo not drawn); value = -4.01%
SMILES = CNC[C@H](O)c1ccc(O)c(O)c1; value = 20.3%
SMILES = Cc1ccc(S(=O)(=O)NC(=O)NN2CC3CCC[C@@H]3C2)cc1 (stereo in doubt); value = -8.9%
SMILES = C=C(C)[C@@H]1[C@H]2OC(=O)[C@@H]1[C@]1(O)C[C@H]3O[C@]34C(=O)O[C@H]2[C@]14C; value = 1.75%
SMILES = CCCCNc1ncc2c(-c3ccc(CN4CCN(C)CC4)cc3)cn([C@H]3CC[C@H](O)CC3)c2n1; value = 5.14%
SMILES = OC(CN1CCNCC1)Cn1c2ccc(Br)cc2c2cc(Br)ccc21 (stereo not drawn); value = 17.5%
SMILES = CCc1ccc(CCOc2ccc(CC3SC(=O)NC3=O)cc2)nc1 (stereo not drawn); value = -8.55%
SMILES = Cc1cc(O)c(C(=O)N[C@@H](C(=O)N[C@@H]2C(=O)N3C(C(=O)O)=C(CSc4nnnn4C)CS[C@H]23)c2ccc(O)cc2)cn1; value = 4.01%
SMILES = CC1(C)CCC2=C(O1)c1ccccc1C(=O)C2=O; value = 25.4%
SMILES = CC(C(=O)O)c1ccc(N2Cc3ccccc3C2=O)cc1 (stereo not drawn); value = 20.3%
SMILES = O=C1CC2(CCCC2)CC(=O)N1CCNCC1COc2ccccc2O1 (stereo not drawn); value = 1.66%
SMILES = O=C(/C=C/c1ccc(CN(CCO)CCc2c[nH]c3ccccc23)cc1)NO; value = -7.52%
SMILES = NC(=O)N/N=C/c1ccc(Oc2ccc(F)cc2)cc1; value = -3.75%
SMILES = Cc1cc(Oc2ccc3nc(COc4ccc(CC5SC(=O)NC5=O)cc4)n(C)c3c2)cc(C)c1N (stereo not drawn); value = 15.3%
SMILES = CCC(C)C(CC)C(N)=O (stereo not drawn); value = -0.39%
SMILES = C/C=C/C=C/C(=O)O; value = -0.36%
SMILES = CCCCCCCCCCCCCCCC(=O)OC[C@@H](NC(=O)C(Cl)Cl)[C@H](O)c1ccc([N+](=O)[O-])cc1; value = 0.81%
SMILES = O=C(O)c1cc(O)c2ccc(Cl)cc2n1; value = 4.7%
SMILES = O=C(O)[C@H](CC(=O)N1C[C@H]2CCCC[C@H]2C1)Cc1ccccc1; value = -1.16%
SMILES = O=C(O[C@@H]1C[C@@H]2C[C@H]3C[C@H](C1)N2CC3=O)c1c[nH]c2ccccc12; value = -1.01%
SMILES = O=C1[C@@H]2[C@H]3CC[C@H](C3)[C@@H]2C(=O)N1C[C@@H]1CCCC[C@H]1CN1CCN(c2nsc3ccccc23)CC1; value = -1.6%

Some of these lines once more (study 1):
Sequence = CAACCCTC; value = -0.0816
Sequence = CATACGCC; value = 0.0485
Sequence = CAAAAGTA; value = 0.295
Sequence = GCGGTTTA; value = -0.0871
Sequence = CACCATAG; value = -0.095
Sequence = CACTGACG; value = -0.226
Sequence = CGAAACGC; value = -0.236
